{"data": "Experimental data gathered from unrelated publications", "note": "A part holds a random share of what one study measured."}
{"data": "Study 1", "target": "Sal-like protein 4, full length isoform B (SALL4, Homo sapiens, UniProt Q9UJQ4-2, residues 1-616)", "method": "universal PBM", "molecule type": "double-stranded DNA, one strand shown", "matrix": "in vitro", "concentration": "not given", "notes": "8-mer, flanks averaged, mean of replicates", "direction": "higher = stronger binding"}
{"Sequence": "CGATGTCC", "E-score": -0.224}
{"Sequence": "ATCCCCCG", "E-score": -0.0606}
{"Sequence": "CAGTAGAA", "E-score": 0.0454}
{"Sequence": "CGACAGAA", "E-score": -0.033}
{"data": "Study 2", "target": "Centromere-binding protein 1, full length, His-tagged (CBF1, Saccharomyces cerevisiae, UniProt P17106, residues 1-351)", "method": "competition protein-binding microarray", "molecule type": "double-stranded DNA, one strand shown", "matrix": "in vitro", "concentration": "2 µM", "notes": "whole 60-bp probe, lowest competitor level", "added": "Pho4 competitor, 0.05 µM", "direction": "higher = stronger binding", "sequence of UniProt P17106 (whole entry, looked up)": "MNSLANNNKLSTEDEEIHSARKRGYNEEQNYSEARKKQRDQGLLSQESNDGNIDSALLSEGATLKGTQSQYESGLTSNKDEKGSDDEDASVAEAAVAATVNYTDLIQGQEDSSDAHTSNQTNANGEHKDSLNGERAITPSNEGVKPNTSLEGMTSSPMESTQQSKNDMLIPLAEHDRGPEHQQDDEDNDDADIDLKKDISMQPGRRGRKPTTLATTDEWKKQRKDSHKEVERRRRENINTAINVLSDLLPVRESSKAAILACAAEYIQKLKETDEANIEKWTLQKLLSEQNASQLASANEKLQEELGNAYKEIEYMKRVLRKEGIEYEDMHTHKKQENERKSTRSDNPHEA"}
{"Sequence": "CTTCTGTAAATTTGTTCTGTGGGTGGACGCGCCCCGGTCTTGATTCGCTTGACGCTGCTG", "fluorescence intensity [a.u.]": 81.4}
{"Sequence": "CTTTCCCGATCTTGTCACTAAACTTTAGCACATTTGGTCTTGATTCGCTTGACGCTGCTG", "fluorescence intensity [a.u.]": 74.5}
{"Sequence": "AAAGTAGCATTCCGTTACGTGATGGGTACTTTAACCGTCTTGATTCGCTTGACGCTGCTG", "fluorescence intensity [a.u.]": 97.7}
{"data": "Study 3", "target": "PABPC1L2, full length, GST fusion (mouse, UniProt A0ABA7IW68)", "method": "RNAcompete", "molecule type": "RNA", "matrix": "in vitro", "concentration": "20 nM", "notes": "7-mer, probes averaged, single round", "reference": "mean of 7-mers", "direction": "higher = stronger binding", "Residues (chain)": "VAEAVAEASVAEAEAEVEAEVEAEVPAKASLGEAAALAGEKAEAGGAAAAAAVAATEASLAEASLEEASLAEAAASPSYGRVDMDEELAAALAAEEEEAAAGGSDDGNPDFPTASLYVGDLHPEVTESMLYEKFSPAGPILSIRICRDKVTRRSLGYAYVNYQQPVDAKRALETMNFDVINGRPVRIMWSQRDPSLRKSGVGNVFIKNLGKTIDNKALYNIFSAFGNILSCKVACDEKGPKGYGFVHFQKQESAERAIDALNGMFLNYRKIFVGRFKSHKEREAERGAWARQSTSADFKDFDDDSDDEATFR"}
{"Sequence": "ACAAAUA", "7-mer Z-score": 1.51}
{"Sequence": "AUUCCUU", "7-mer Z-score": -0.431}
{"Sequence": "GCCAGAC", "7-mer Z-score": -0.0246}
{"data": "Single results of other studies"}
{"Substance": "PhoQ, residues 284 288 289 292 302 303 WSHMKI", "target": "PhoP, residues 12 14 15 18 19 LWHVM (Escherichia coli, UniProt P23836)", "test": "Sort-seq, item: YFP reporter", "test system": "E. coli", "conditions": "PhoQ-PhoP variant library, added: 10 µM Mg2+", "how to read": "reference: high Mg2+ state, higher = stronger signaling", "measurement": "fold induction", "result": 4.8}
{"note": "For quick reference, copied from above (study 2):"}
{"Sequence": "CTTTCCCGATCTTGTCACTAAACTTTAGCACATTTGGTCTTGATTCGCTTGACGCTGCTG", "fluorescence intensity [a.u.]": 74.5}
{"Sequence": "CTTCTGTAAATTTGTTCTGTGGGTGGACGCGCCCCGGTCTTGATTCGCTTGACGCTGCTG", "fluorescence intensity [a.u.]": 81.4}
